Assay results collected from several papers.
A part holds a random share of what one study measured.

Sample 1
Organism: Saccharomyces cerevisiae
Read-out: binding
Technique: yeast competitive growth sequencing
Form: peptide
Strain: cyclin A1-Cln2 strain
Medium: peptide tiling library
Direction: direction not given
The enrichment score of `ATNSSHTDAHEILVSD` is reported as -0.0948.
The enrichment score of `NSMKELNFSHLPSNSV` is reported as 0.591.
With `LENIEPLQVSFAVLSS` the enrichment score was 1.62.
`KRCATPVIIDEILPSK` gave an enrichment score of 0.525.
With `RQVRRDLFAF` the enrichment score was -1.15.
For `ASVLSKPIFCFVKD`, the enrichment score was 0.492.
`YLYLLLTQSLWCRV` gave an enrichment score of -1.57.
For `GPVKLEFDVSDGAT`, the enrichment score was 0.0577.
`GTPKRCLDLSNLSSGE` has an enrichment score of 0.274.
`VLPGGVPSPGASLTSM` gave an enrichment score of 0.319.
`SPPRGRRLFPPGPAGF` gave an enrichment score of -0.361.
The enrichment score of `PHKTFRKLRLFDTPHT` is reported as -2.44.
The enrichment score of `NESHLDKEHDAVEVAD` is reported as 1.36.
For `AKRSLGFLPQPVPL`, the enrichment score was -0.229.
The enrichment score of `EPRNLLSLFEDTLDPT` is reported as 1.45.
`RTEALEQGGLPKKLIF` gave an enrichment score of -1.13.

Sample 2
Target: RNA binding protein fox-1 homolog 2, RRM domain, GST-SBP tag (RBFOX2, Homo sapiens, UniProt O43251-10, residues 100-194)
Technique: RNA Bind-n-Seq
Form: RNA
Medium: in vitro
Tested at: 365 nM
Notes: natural RNA segment, single round, ends assumed
Baseline: no-protein control
Direction: higher = stronger binding
Shared flanks, not repeated: GGGAGUUCUACAGUCCGACGAUC … UGGAAUUCUCGGGUGCCAA
Target sequence (chain): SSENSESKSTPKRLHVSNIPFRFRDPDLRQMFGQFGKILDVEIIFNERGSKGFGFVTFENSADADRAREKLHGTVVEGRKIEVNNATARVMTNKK
For `AUCUCAGGCAAUCGAGACAGAGAGAGCCAGCAAGGGCUGGUACCUGAGGUCAUAUUUCAGACACCCACCUGACCCUGCCACUCACAGCCGUCGUUUGUUUUCCAUGGAUG`, “RBNS enrichment (R)” read 0.352.
`CCGUACCUACUAAUAUGCCUUAUUCUUCUUCACCUAGUGUUUUAAAAGUCCUGGGUAGAAAGAGUUUUAGAAAUGUAAUCAGUUGUUCAGCUUCAAUAAUAUAGAGAUCU`: “RBNS enrichment (R)” 0.417.
For `UGUAGGCUUCUGUGCACCACACGGCACAGCCCACUGAUUGCUGCCACCGGCUCUGUCUUGGUCAGUGUUACCACUGCCAGCACUCAGGCUGUGGCAGAUGCCAGCAGCUC`, “RBNS enrichment (R)” read 0.227.
`CUUCCCCAGCCCCUCCUCUUGUUUCUUCAUUCAUUCAACAAAAUUUGGCUGGAAUCUGGUUAUUUUGGAUUAAUUCUGCCAAGACAUAAGCCAACUGUCUGCCAGCUCCA` — result for “RBNS enrichment (R)”: 0.579.
`AAUUCGUAUAGGGUGCAGAGUAAUUUCUUAUUGUGAGGAACUGUCCAAUGUAUUGCAAGAUGUUCUGCAUACUUGGCUCUCACAUACUAAAUGCUAGUAGCGCCCCCACC`: “RBNS enrichment (R)” 0.269.
`GGUGUGCAAGGCCGAGUGAUGGCUGAUCAAUCAAAGCCGUGGUCUAGGACCAGCUCCCACGUGCCAUUUACUGCUUUCUUCACCCUCCUCAUCUGGAGUUUGAUGGUUUA`: “RBNS enrichment (R)” 0.498.
For `GGAGAAAGGUUGAGAUAAGAAUGUCCCAUGGAGUGCCGUGGGCAACAGUGGCCCUUCAUGGGAACAAUCUGUUGGAGCAGGGGGUCAGUUCUCUGCUGGGAAUCUACCCC`, “RBNS enrichment (R)” read 0.345.
Under “RBNS enrichment (R)”, `UUAAGAUUCAUUCCUCAUUCUGUUUCUUUCCAGUGGGAGAAGAGUCCCCAUGAAAUAAGAUGAAACUGAUUCCAUGCACUAGUACAUGUAGGCUUCUCCCUUGUGCAAAG` is recorded as 0.638.

Sample 3
Target: Interferon regulatory factor 3, full length, phosphomimetic (IRF3, Homo sapiens, UniProt Q14653, residues 1-427, S386D/S396D/S398D/S402D/T404D/S405D)
Technique: protein-binding microarray
Form: double-stranded DNA, one strand shown
Medium: in vitro
Tested at: 2540 nM top
Notes: 60-bp whole probe
Together with: salmon DNA 0.4 mg/ml
Baseline: random background probes
Direction: higher = stronger binding
Shared flanks, not repeated: GCCTAGCAC … GTCTTGATTCGCTTGACGCTGCTG
Target sequence (chain): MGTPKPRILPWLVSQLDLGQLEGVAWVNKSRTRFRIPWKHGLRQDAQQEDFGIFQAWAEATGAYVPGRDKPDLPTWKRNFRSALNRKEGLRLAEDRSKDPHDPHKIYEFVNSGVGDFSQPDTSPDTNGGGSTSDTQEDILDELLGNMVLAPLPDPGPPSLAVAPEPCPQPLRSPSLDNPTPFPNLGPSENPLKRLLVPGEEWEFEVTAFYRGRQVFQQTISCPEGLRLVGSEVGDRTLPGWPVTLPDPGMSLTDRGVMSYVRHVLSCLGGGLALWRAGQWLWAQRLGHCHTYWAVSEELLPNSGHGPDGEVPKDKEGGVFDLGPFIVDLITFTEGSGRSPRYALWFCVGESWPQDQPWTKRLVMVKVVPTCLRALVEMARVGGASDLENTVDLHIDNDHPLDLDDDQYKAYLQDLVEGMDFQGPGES
`TTCACTTTAACTTATTCTCTAGTGCTA` — result for “fitted relative affinity”: 0.785 z-score.
`TTTGGTCTCGGTCTCGGTTAGTGCTAG`: “fitted relative affinity” 1.29 z-score.
For `TTAGGCTTCGGTTCCGGTTAGTGCTAG`, “fitted relative affinity” read 1.87 z-score.
`TTATGTTTCGGTTCCGGTTAGTGCTAG`: “fitted relative affinity” 10 z-score.
Under “fitted relative affinity”, `GAAGGTTTCCTTATCCTGACGTGCTAG` is recorded as 7.72 z-score.
`GTCGATTTCAGTTTCGAGACGTGCTAG` — result for “fitted relative affinity”: 5.64 z-score.
`GACAAACTGGGGACTGGAGACGTGCTA` — result for “fitted relative affinity”: -0.594 z-score.
Under “fitted relative affinity”, `CTGGCTATTTTATATGCTATGGTGCTA` is recorded as 0.0198 z-score.
`TTAGGTATCCTTTTCTTTTAGTGCTAG`: “fitted relative affinity” 8.36 z-score.
`TTAGATATGGGGTTTCGATTAGTGCTA`: “fitted relative affinity” 1.45 z-score.
Under “fitted relative affinity”, `GTGGCCTTTGTTTCCAGGCAGTGCTAG` is recorded as 0.953 z-score.
Under “fitted relative affinity”, `TTAGGTATCCTACTGCCTTAGTGCTAG` is recorded as 2.61 z-score.
Under “fitted relative affinity”, `GACGGTTGCGGTCTCGGGACGTGCTAG` is recorded as 4 z-score.
Under “fitted relative affinity”, `TTGGATTTCAGTTCCGATTAGTGCTAG` is recorded as 3.24 z-score.
`TCAACTTTCCAATTGTCACTGTGCTAG`: “fitted relative affinity” 4.51 z-score.
Under “fitted relative affinity”, `CTAGGTATCGGGTATCGGTTAGTGCTA` is recorded as 2.06 z-score.
For `TTAGGACTGCTTCTCATTTAGTGCTAG`, “fitted relative affinity” read 0.0774 z-score.
`TTAGGTCTCGGACTGGGATAGTGCTAG` — result for “fitted relative affinity”: -0.175 z-score.
`CACGGTATCGGTCTCGGGACGTGCTAG`: “fitted relative affinity” 4.13 z-score.

Sample 4
Target: Sal-like protein 4, full length isoform A (SALL4, Homo sapiens, UniProt Q9UJQ4, residues 1-1053)
Sequence of UniProt Q9UJQ4 (whole entry, looked up): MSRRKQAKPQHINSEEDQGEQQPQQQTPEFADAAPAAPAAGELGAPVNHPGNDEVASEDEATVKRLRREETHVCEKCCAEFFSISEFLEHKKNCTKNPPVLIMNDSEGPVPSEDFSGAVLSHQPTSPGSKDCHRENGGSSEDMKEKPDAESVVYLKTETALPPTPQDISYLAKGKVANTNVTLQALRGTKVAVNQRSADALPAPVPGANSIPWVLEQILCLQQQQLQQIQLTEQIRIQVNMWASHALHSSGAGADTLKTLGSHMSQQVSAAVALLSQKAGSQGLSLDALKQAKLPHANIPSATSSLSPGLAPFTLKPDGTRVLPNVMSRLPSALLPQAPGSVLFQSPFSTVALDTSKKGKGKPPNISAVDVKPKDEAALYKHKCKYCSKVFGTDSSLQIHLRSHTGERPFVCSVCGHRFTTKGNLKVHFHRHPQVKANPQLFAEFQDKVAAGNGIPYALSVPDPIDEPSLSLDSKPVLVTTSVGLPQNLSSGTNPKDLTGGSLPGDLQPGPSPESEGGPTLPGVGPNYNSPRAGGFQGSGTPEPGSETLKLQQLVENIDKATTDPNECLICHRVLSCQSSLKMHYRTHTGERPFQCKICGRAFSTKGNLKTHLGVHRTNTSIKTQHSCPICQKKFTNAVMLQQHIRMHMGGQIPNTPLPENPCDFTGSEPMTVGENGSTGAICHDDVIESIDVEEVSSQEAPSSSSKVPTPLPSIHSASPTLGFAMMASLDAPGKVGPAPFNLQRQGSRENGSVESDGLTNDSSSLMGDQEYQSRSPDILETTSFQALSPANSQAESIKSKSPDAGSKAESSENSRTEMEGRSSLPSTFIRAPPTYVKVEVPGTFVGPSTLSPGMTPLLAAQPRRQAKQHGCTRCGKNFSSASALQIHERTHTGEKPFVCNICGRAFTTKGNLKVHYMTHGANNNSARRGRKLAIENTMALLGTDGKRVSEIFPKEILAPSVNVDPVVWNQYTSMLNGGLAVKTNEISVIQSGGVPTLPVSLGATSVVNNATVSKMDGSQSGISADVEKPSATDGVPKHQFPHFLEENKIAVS
Technique: universal PBM
Form: double-stranded DNA, one strand shown
Medium: in vitro
Tested at: 600 nM
Notes: 8-mer, flanks averaged, mean of replicates
Direction: higher = stronger binding
The E-score of `CAGATTGG` is reported as -0.154.
`CGGGGGCC` gave an E-score of -0.384.
For `CCAACTGG`, the E-score was -0.149.
The E-score of `CTACCGCC` is reported as -0.32.
The E-score of `CACGATCC` is reported as -0.124.
The E-score of `ACGCGGCA` is reported as -0.338.
For `CTACCTTC`, the E-score was 0.09.
For `ACACGGGA`, the E-score was -0.193.
`CTTCAAAA` has an E-score of 0.259.
The E-score of `CCCTGACA` is reported as -0.0013.
`GCCCTCCA` has an E-score of -0.296.
The E-score of `ACTACTAT` is reported as 0.259.
`CCTGTATA` has an E-score of 0.151.
`AATGCACC` gave an E-score of -0.0609.
For `GCTAGGCC`, the E-score was -0.28.

Repeated from above (sample 3):
`TTAGATATGGGGTTTCGATTAGTGCTA`: “fitted relative affinity” 1.45 z-score.
Under “fitted relative affinity”, `GTGGCCTTTGTTTCCAGGCAGTGCTAG` is recorded as 0.953 z-score.
Under “fitted relative affinity”, `TTAGGTATCCTACTGCCTTAGTGCTAG` is recorded as 2.61 z-score.
Under “fitted relative affinity”, `GACGGTTGCGGTCTCGGGACGTGCTAG` is recorded as 4 z-score.
Under “fitted relative affinity”, `TTGGATTTCAGTTCCGATTAGTGCTAG` is recorded as 3.24 z-score.
`TCAACTTTCCAATTGTCACTGTGCTAG`: “fitted relative affinity” 4.51 z-score.
Under “fitted relative affinity”, `CTAGGTATCGGGTATCGGTTAGTGCTA` is recorded as 2.06 z-score.
